Experimental data from different studies.
Parts stem from different laboratories: compare values within a part only.
Sequence of UniProt P53779 (whole entry, looked up): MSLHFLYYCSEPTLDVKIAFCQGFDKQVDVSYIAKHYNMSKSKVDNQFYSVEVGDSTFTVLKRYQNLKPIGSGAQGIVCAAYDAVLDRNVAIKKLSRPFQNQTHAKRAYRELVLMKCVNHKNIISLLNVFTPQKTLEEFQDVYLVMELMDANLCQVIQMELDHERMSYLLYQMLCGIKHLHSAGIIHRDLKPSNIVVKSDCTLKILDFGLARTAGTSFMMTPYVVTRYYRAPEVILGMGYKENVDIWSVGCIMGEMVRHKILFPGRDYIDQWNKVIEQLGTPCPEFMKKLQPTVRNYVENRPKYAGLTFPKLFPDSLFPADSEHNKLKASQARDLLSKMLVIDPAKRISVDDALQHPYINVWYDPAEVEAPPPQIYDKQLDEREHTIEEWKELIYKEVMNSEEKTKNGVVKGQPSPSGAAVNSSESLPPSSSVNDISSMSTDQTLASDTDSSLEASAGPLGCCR
Sequence of UniProt Q8WTQ7 (whole entry, looked up): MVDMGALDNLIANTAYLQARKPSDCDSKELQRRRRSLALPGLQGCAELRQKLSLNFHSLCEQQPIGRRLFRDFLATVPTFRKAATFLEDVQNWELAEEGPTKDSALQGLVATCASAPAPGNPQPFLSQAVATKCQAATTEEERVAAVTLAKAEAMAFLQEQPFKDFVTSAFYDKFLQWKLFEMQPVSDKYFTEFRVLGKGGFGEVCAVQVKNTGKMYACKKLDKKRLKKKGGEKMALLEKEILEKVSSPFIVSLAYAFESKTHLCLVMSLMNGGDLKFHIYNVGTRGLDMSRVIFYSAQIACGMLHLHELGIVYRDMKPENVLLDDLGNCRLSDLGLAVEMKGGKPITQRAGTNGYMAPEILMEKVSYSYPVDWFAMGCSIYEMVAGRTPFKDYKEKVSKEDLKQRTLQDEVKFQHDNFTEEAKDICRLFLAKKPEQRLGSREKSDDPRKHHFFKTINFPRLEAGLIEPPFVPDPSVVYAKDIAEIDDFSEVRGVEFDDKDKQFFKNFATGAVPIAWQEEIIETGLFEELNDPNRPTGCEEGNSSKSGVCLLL
Sequence of UniProt Q9Y243 (whole entry, looked up): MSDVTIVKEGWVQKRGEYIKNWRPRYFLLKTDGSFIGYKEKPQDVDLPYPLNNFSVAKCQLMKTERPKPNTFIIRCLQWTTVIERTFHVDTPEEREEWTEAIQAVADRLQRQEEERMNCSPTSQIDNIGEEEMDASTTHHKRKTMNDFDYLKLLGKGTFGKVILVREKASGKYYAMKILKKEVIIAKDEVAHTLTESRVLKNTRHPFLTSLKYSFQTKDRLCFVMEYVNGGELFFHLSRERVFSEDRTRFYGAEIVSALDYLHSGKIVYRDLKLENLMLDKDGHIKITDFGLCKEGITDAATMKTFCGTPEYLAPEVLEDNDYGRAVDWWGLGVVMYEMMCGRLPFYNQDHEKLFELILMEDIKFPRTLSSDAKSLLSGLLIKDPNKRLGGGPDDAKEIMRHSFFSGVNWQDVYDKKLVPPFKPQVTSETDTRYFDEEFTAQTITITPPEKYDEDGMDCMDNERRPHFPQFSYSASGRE

Series 1 — method: RNA Bind-n-Seq; molecule type: RNA; medium: in vitro; tested at: not given; reference: input RNA pool; direction: higher = stronger binding
Target: RING finger protein unkempt homolog, zinc fingers 1-6, GST-SBP tag (UNK, Homo sapiens, UniProt Q9C0B0, residues 30-357)
Sequence of UniProt Q9C0B0 (30-357, looked up): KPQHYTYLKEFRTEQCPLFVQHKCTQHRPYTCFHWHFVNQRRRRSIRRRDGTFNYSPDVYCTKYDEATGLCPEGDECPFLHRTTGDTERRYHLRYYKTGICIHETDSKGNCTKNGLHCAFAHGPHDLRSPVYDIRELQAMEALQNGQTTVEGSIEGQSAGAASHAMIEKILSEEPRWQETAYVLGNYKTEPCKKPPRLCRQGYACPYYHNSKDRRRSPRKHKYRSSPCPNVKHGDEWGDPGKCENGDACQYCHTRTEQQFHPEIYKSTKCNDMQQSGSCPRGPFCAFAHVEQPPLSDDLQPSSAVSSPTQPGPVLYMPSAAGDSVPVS
Setting: RNA with constant flanks, human-mouse chimeric sites, ends assumed
All sequences stand within: GGGAGUUCUACAGUCCGACGAUC … CAACAGAGGAUUGAGCAUCA
Strand	bound/input enrichment [ratio]
GGACAUCUGUCAAAUUGUUAUGUUCCUGUGAAACAAGUGAACACUCUGAUACACUUCAUCUGCUUGUACAUUUAACUGAUAGAGAAAUGUAAAUAUGUUAAUCCAAGAUGAAUUCAACUU	0.21
UAAAUCCUGUGCCAGCACUUCGCUCAUAAAGUUUUAAAUUCAAGAAAAAUAGUGUUUGUUUCCUGAUUAUUGUAUCCAAUACUUUGCCUAGUAUGUAACUCACUCUUACUGAUAAUAAAA	2.52
AAAGAGAAACUAAAGCAACUAAUAGAGAAGAGGAUUGGGCAAAGAGAUUUCAUAGAGGAAACUAGGAUUAUUAGCAAACAUGAGUUAUAUUCCAGAGCGUCUCAGAAACCCCAGCCAAAC	3
CCCUCCCCGGGCCACCCGCCCGCCCAAGCUCCCCGCCGAGAUCCAGGUUUCUUCUUAUUUCAUAGCAAAUAAGAAAAAUGUUCUACGCACAUUUUGUUCUCAGUAAACGAGGGCCUCUGG	0.44
CACACACUCUUCUGCGGGACCCUCAUCUUGCAGGCCCGGGCCUAUGUGGGACCGCACGUGCUAGCAGUGGUGACCCGCACAGGGUUCUGCACAGCCAAAGGGGGCCUGGUGAGCUCCAUC	0.126
GCGGCAGAAUCAUGGAGGACAUGAUGGAGCUCCCCAAAGCGCGCGUCAACGCCAGCAUGUUACCACAAUUCAUCGACCGGCCCGUGUGCUUCGUGGGGAAGCUGGAAAAGAUUCAUCCCA	0.164
GGGACUGAUUCAUUCCAAGGACAGGCCACCCCAUUUGAUGCCUGGACUGAUGACAGUAUGGAAGGGCCUAGUCAAAAUGUUGAAGCUGAGUCAAUUCAGGAUGCCAUGAGUAUGGAAGAG	0.421
UCUUAACUUAUUCAUUUAACUUAUUUUUAUAGCUAGAUAAAUAUUGUUAGUCUUAGACAAUAGCUCACAUUUUUUGAGAAGCAUGCCCUCCCUGUCCAUUGGGCCCAUAACAUGACCCAG	19.2

Series 2 — read-out: cell-free assay; method: competition with immobilised ligand; tested at: 1 µM
Compound: CC(=O)c1c(NS(C)(=O)=O)c2cc(-c3ccc(Cl)cc3)c(-c3ccc(Cl)cc3Cl)nc2n(C)c1=O
target	remaining binding [%]
Rhodopsin kinase GRK7 (GRK7, Homo sapiens, UniProt Q8WTQ7)	83
RAC-gamma serine/threonine-protein kinase (AKT3, Homo sapiens, UniProt Q9Y243)	91
Mitogen-activated protein kinase 10 (MAPK10, Homo sapiens, UniProt P53779)	78

Series 3 — method: competition protein-binding microarray; molecule type: double-stranded DNA, one strand shown; medium: in vitro; tested at: 2 µM; added: Pho4 competitor, 0.05 µM; direction: higher = stronger binding; all sequences stand within: … GTCTTGATTCGCTTGACGCTGCTG
Target: Centromere-binding protein 1, full length, His-tagged (CBF1, Saccharomyces cerevisiae, UniProt P17106, residues 1-351)
Sequence of UniProt P17106 (whole entry, looked up): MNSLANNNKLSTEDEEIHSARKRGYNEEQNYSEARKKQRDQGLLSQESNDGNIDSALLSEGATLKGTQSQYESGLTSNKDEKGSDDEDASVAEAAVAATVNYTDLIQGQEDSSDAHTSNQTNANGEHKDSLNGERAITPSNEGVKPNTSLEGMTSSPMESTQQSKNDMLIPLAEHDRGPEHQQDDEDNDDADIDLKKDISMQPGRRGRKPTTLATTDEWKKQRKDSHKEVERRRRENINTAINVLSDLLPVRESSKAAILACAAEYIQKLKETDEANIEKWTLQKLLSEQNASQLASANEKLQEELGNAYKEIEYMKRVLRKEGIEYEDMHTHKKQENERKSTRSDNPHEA
Setting: whole 60-bp probe, lowest competitor level
Strand	fluorescence intensity [a.u.]
AGTCGAGTACGATTCACTGTGACGGTCATCCTAGAT	66.1
AAATTACTAAGTTGCCCAGTGGGTGACGCCGTATGA	59.1
AAAGCGGTAATTTGTAGAGTGGGTGCAGATATCTAT	88.1
CGGGGTTAAGTTTGCGACGTGGGTGGCTTGCAGCAG	63.7
AAAAATTTTGAATGTCCCGTGACAAACAAAACCATT	2070
CTTTCCCGATCTTGGAAGGTGGGTGTAGCACATTTG	72.3
ATGCTAAGAGATACGCTCGTGATGGCTTGGCGCAAT	123
CTTTCAGAGGTGGATCTCGTGGCCGATCATTTAGAG	112

Single results of other studies — read-out: enzyme activity; action: inhibitor; tested at: 0.5 µM; reference: control
Compound	target	remaining activity [%]
COc1cc(Nc2c(C#N)cnc3cc(OCCCN4CCN(C)CC4)c(OC)cc23)c(Cl)cc1Cl	STE20/SPS1-related proline-alanine-rich protein kinase (STK39, Homo sapiens, UniProt Q9UEW8)	93.6
Cc1cncc2cccc(S(=O)(=O)N3CCCN(C(=O)CN)C[C@@H]3C)c12	Protein kinase C alpha type (PRKCA, Homo sapiens, UniProt P17252)	109

For quick reference, copied from above (series 3):
Strand	fluorescence intensity [a.u.]
AGTCGAGTACGATTCACTGTGACGGTCATCCTAGAT	66.1
AAATTACTAAGTTGCCCAGTGGGTGACGCCGTATGA	59.1
AAAGCGGTAATTTGTAGAGTGGGTGCAGATATCTAT	88.1
